Measured values collected from several papers.
Protocols differ between the studies behind these lines. ± gives the spread as reported. ≈ marks a conversion by molar mass, not a printed value.

COCc1ccc(C=O)n1CCCC(=O)O — concentration doubling activity (quinone reductase; inducer; Hepa-1c1c7; 48 h): 2.4 µM
C1=[N+]2CCC[N+]3=Cc4ccc5[n]4[Au-]23[n]2c1ccc2-c1nc2ccccc2nc1-5.F[P-](F)(F)(F)(F)F — maximal Tm increase (human ACTN3 291-bp dsDNA; high resolution melt): 5.1 °C
CCC1(CC)C(=O)N(Cc2cn(CCOCCOCCOCCNC(=O)CCCC[C@@H]3SC[C@@H]4NC(=O)N[C@@H]43)nn2)C1=O — SILAC ratio (serine hydrolases; competitive ABPP; U-937 cell lysate; 10 µM; relative to: compound over DMSO): > 3
Nc1ncc(-c2nc(N3CCOCC3)nc(N3CCN(C(=O)CCC(=O)NCCCCCCCCCNc4cccc5c4C(=O)N(C4CCC(=O)NC4=O)C5=O)CC3)n2)c(C(F)F)n1 (stereo not shown) — degradation (PI3K p110alpha; degrader, Western blot; MCF7 and T47D; concentration not given): active
CC[C@H](C)[C@@H]1NC(=O)[C@H](CCCNC(=N)N)NC(=O)[C@H](C)NC(=O)CNC(=O)[C@H](CCCCN)NC(=O)[C@H](CCCNC(=N)N)NC(=O)[C@H](C(C)C)NC(=O)[C@H](C)NC(=O)[C@@H]2CSSC[C@@H]3NC(=O)[C@H](CO)NC(=O)[C@H]([C@@H](C)O)NC(=O)CNC(=O)[C@H](CCCNC(=N)N)NC(=O)[C@@H]4CCCN4C(=O)[C@H](CSSC[C@@H](C(=O)N[C@@H](CC(C)C)C(=O)O)NC(=O)[C@H](CCCCN)NC(=O)[C@H](CC(C)C)NC(=O)[C@H](CC(C)C)NC(=O)[C@H](Cc4ccccc4)NC(=O)[C@H](CO)NC(=O)[C@H](CC(N)=O)NC3=O)NC(=O)[C@H](CC(=O)O)NC(=O)[C@H](CSSC[C@H](NC(=O)[C@H](CCSC)NC(=O)[C@@H]3CCCN3C(=O)[C@@H](NC(=O)[C@H](CCC(N)=O)NC(=O)CNC(=O)[C@H](Cc3ccc(O)c(I)c3)NC(=O)[C@@H](N)CCCCN)C(C)C)C(=O)N[C@@H](CC(=O)O)C(=O)N[C@@H](C)C(=O)NCC(=O)N[C@@H](CCC(=O)O)C(=O)N[C@@H](CCC(N)=O)C(=O)N2)NC(=O)[C@H](CC(C)C)NC(=O)[C@H](CCCCN)NC(=O)CNC1=O [iodine-125 labelled] — Kd (CART binding site, rat; saturation binding; differentiated PC-12 membranes): 0.68 ± 0.06 nM
CN1CCCNC(=O)CCC(=O)NCCCN(C)CCCNc2cccc3c2C(=O)c2cccc(c2C3=O)NCCC1 — PCR inhibition threshold (duplex DNA; TRAP assay PCR; no inhibition up to value): > 150 µM
COc1cc(C(=O)c2[nH]c(N)nc2-c2cccs2)cc(OC)c1OC — polymerization (FtsZ (Streptococcus pneumoniae)): no effect
Cc1c(-c2cccc(C3=NCCN3)c2)oc(-c2cccc(C3=NCCN3)c2)c1C — ΔTm (c-KIT2 G-quadruplex DNA; G-quadruplex stabilisation, FRET melting; 1 µM): 16.8 °C
CCCCCCCCCCCCCCC(Br)C(=O)O[C@@H](C(=O)O[C@H]1C[C@@]2(O)[C@@H](OC(=O)c3ccccc3)[C@@H]3[C@]4(OC(C)=O)CO[C@@H]4C[C@H](O)[C@@]3(C)C(=O)[C@H](OC(C)=O)C(=C1C)C2(C)C)[C@@H](NC(=O)c1ccccc1)c1ccccc1 (stereo partly shown) — time to Vmax (tubulin; polymerization): 8 to 9 min
CCCCO[C@H]1[C@H](O)[C@@H](N)[C@@H](O[C@H]2[C@H](O[C@@H]3O[C@H](CO)[C@@H](O[C@H]4O[C@@H](CN)[C@@H](O)[C@H](O)[C@H]4N)[C@H]3O)[C@@H](O)[C@H](N)C[C@@H]2N)O[C@@H]1CO — IC50 (rabbit reticulocyte ribosome; luciferase translation, cell-free translation; rabbit reticulocyte lysate): 49.8 ± 5.47 µg/mL (≈ 74.2 µM)
CC(C)C[C@H](NC(=O)[C@H](CO)NC(=O)[C@H](CCCNC(=N)N)NC(=O)[C@H](CC(=O)O)NC(=O)[C@H](CCC(=O)O)NC(=O)[C@H](C)NC(=O)[C@@H]1CCCN1C(=O)[C@H](C)NC(=O)[C@H](CCC(=O)O)NC(=O)[C@@H]1CCCN1C(=O)[C@@H]1CCCN1)C(N)=O — dopamine level (dopamine system; rhesus monkey, contralateral putamen, caudate, pallidus; intranasal, dose not given, repeated dose escalation; relative to: vehicle): no effect
CCC(=O)N(C)c1ccc(Cl)c(Cl)c1 — fold activation (CAR3 constitutive androstane receptor, human; reporter gene, agonist; 3.2 µM; relative to: vehicle): 0.66 fold
Cc1ccc(NC(=O)c2c(C)oc3ccc(O)c(CN4CCCCCC4)c23)cc1 — composite Z-score (miR-21 RNA; binding, small molecule microarray; direction not given): -0.18
NC[C@@H]1O[C@H](O[C@H]2[C@@H](O)[C@H](O[C@@H]3[C@@H](O)[C@H](N)C[C@H](N)[C@H]3O[C@H]3O[C@H](CN)[C@@H](O)[C@H](O)[C@H]3N)O[C@@H]2CO)[C@H](N)[C@@H](O)[C@@H]1O — Tm (poly(dA)•2poly(dT) triplex; concentration not given, pH 5.5, KCl 140 mM): 34.4 °C
NC(CSSCC(N)C(=O)N1CCn2cc(-c3ccccc3)nc2C1CC1CCCCC1)C(=O)N1CCn2cc(-c3ccccc3)nc2C1CC1CCCCC1 (stereo not shown) — inhibition (Gαq/11; refers to: IP1; CHO M1 receptor expressing; 10 µM): 26.9 ± 3.3%
CC1=[N+]2N=C(c3ccccc3)[O][Pd-2]2([Cl])[O+]=C2Oc3ccccc3C=C21 (stereo not shown) — hypochromism (yeast tRNA; UV-visible absorption titration; concentration not given, pH 7.2): 8.67%
CO[C@@H]1[C@H](O)[C@@H](COP(=O)(O)OP(=O)([S-])OP(=O)(S)OC[C@H]2O[C@@H](n3cnc4c(=O)[nH]c(N)nc43)[C@H](O)[C@@H]2O)O[C@H]1n1c[n+](C)c2c(O)nc(N)nc21 (mixture of isomers) — decapping (Schizosaccharomyces pombe Dcp1/Dcp2 complex; substrate; capped short RNA; 30 min, 30 °C): 36.7 ± 3.9%
CN1CCCNC(=O)CC2(CCCCC2)CC(=O)NCCCN(C)CCCNc2cccc3c2C(=O)c2cccc(c2C3=O)NCCC1 — PCR inhibition threshold (duplex DNA; TRAP assay PCR; no inhibition up to value): > 150 µM
O=C([O][Ti+2][O]C(=O)c1ccc(P(c2ccccc2)c2ccccc2)cc1)c1ccc(P(c2ccccc2)c2ccccc2)cc1.[Cl][Au].[Cl][Au].c1cc[cH-]c1.c1cc[cH-]c1 — inhibition (thioredoxin reductase human; enzyme activity, inhibitor; CAKI-1; 5 µM, 5 h): 31.6%

For quick reference, copied from above:
COc1cc(C(=O)c2[nH]c(N)nc2-c2cccs2)cc(OC)c1OC — polymerization (FtsZ (Streptococcus pneumoniae)): no effect
Cc1c(-c2cccc(C3=NCCN3)c2)oc(-c2cccc(C3=NCCN3)c2)c1C — ΔTm (c-KIT2 G-quadruplex DNA; G-quadruplex stabilisation, FRET melting; 1 µM): 16.8 °C
